Results of several laboratories.
Lines come from different studies, so protocols differ.
MKNK2: MAP kinase-interacting serine/threonine-protein kinase 2 (MKNK2, Homo sapiens, UniProt Q9HBH9)
Sequence of UniProt Q9HBH9 (whole entry, looked up): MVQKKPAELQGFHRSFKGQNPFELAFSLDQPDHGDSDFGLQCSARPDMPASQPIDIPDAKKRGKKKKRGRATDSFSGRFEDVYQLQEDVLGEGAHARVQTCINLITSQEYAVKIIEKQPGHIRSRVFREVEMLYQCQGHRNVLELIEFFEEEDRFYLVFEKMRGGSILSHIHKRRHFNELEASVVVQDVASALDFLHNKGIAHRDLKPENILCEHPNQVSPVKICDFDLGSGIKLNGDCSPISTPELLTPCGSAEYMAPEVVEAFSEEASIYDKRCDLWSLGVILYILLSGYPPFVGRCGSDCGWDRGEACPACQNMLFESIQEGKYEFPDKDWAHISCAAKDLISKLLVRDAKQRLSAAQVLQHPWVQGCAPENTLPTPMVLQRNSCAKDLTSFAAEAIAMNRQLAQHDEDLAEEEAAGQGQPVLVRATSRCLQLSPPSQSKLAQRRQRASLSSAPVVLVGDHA
Sequence of UniProt P78362 (whole entry, looked up): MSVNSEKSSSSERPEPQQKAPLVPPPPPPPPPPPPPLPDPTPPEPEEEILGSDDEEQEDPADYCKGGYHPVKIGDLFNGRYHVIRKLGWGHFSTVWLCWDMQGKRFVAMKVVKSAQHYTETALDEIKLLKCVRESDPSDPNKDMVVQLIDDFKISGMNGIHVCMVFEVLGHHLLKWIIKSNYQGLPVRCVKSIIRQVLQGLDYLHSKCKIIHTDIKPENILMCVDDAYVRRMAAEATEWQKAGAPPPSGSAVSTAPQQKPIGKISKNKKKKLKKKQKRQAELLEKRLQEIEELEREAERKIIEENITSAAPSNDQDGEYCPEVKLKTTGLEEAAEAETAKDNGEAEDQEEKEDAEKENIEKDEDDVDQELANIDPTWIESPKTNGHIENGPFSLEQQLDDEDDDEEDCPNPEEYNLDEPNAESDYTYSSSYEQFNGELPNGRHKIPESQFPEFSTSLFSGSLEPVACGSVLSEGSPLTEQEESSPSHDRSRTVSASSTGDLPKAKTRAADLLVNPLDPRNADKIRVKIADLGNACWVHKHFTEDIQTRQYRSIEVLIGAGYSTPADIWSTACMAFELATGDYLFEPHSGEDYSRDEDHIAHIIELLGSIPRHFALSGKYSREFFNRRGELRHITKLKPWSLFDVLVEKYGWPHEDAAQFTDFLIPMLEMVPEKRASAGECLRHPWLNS
Sequence of UniProt Q9P0L2 (whole entry, looked up): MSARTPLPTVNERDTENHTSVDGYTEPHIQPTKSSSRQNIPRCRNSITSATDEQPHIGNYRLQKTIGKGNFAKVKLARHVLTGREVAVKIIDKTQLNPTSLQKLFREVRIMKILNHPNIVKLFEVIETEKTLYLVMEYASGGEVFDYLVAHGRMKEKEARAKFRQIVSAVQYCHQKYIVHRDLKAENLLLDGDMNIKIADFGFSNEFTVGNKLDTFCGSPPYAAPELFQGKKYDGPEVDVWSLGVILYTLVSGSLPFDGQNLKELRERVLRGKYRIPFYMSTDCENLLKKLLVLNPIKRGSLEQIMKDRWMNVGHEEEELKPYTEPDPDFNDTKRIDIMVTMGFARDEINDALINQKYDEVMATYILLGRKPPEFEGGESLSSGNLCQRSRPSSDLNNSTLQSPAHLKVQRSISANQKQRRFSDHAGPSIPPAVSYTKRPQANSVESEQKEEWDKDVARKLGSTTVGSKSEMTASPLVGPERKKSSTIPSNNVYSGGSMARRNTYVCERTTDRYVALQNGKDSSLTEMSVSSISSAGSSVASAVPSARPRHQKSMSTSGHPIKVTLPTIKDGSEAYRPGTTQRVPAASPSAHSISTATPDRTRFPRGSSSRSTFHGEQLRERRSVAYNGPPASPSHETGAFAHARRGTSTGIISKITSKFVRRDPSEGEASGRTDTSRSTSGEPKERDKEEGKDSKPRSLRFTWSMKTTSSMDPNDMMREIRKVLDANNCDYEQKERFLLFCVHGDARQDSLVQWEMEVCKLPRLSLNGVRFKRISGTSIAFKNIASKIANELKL
Sequence of UniProt Q9HAZ1 (whole entry, looked up): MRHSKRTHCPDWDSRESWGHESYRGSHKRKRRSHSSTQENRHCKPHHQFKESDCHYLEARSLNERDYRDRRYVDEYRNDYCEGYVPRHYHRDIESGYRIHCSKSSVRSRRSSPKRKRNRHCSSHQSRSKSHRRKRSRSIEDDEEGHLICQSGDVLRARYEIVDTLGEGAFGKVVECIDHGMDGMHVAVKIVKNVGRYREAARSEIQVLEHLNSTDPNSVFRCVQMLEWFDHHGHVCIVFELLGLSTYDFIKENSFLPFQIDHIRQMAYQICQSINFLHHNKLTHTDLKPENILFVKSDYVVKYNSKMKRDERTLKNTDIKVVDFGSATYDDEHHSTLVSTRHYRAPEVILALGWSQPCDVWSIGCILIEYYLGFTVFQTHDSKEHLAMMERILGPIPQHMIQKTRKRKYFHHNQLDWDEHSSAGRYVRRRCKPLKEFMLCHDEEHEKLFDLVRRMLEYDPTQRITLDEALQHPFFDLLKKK
Sequence of UniProt P63085 (whole entry, looked up): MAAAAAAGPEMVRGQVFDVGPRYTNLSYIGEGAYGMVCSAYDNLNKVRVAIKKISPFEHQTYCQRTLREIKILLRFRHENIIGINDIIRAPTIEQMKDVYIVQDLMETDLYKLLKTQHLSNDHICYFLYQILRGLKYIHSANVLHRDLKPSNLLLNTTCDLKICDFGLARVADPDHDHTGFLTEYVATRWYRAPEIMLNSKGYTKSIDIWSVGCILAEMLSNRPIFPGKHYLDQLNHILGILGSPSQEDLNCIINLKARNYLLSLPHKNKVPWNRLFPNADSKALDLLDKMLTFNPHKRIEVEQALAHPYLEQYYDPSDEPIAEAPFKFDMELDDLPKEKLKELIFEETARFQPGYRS

The remaining activity of `COc1cc(-c2cncc3c2CN(C)Cc2cc(N4CCNCC4)ccc2-3)cc(OC)c1OC` is reported as 110% (SRPK2 (Homo sapiens, UniProt P78362); kinase activity; 1 µM, human enzyme, together with: ATP 10 µM; relative to: DMSO control).
With `Cc1cc(Nc2cc(N3CCN(C)CC3)nc(Sc3ccc(NC(=O)C4CC4)cc3)n2)[nH]n1` the remaining activity was 103% (Mapk1 (Mus musculus, UniProt P63085); kinase activity, KinaseProfiler; 0.03 µM, species mouse; relative to: control).
The remaining activity of `O=C1NC(=O)/C(=C/c2ccc(-c3ccc(F)cc3O)o2)S1` is reported as 62% (MKNK2; enzyme activity; 10 µM).
With `COc1cc(Nc2ncc3c(n2)-c2ccc(Cl)cc2C(c2c(F)cccc2OC)=NC3)ccc1C(=O)O` the remaining activity was 104% (DYRK1A; kinase activity; 1 µM).
For `O=C(NC1CCC1)c1ccc2nc(-c3cccc(NS(=O)(=O)NCCN4CCCCC4)c3)cn2c1`, the remaining activity was 71% (CLK4 (Homo sapiens, UniProt Q9HAZ1); enzyme activity; 10 µM).
For `COc1cc(F)ccc1-c1ncnc(Nc2cccc(C[S@](C)(=N)=O)c2)n1`, the remaining activity was 83% (MKNK2; kinase activity; 10 µM, together with: 10 µM ATP).
With `O=C(O)c1ccc(Nc2ncc3c(n2)-c2ccc(Cl)cc2C(c2c(F)cccc2F)=NC3)cc1` the remaining activity was 110% (MEK1(h); kinase activity; 1 µM).
The remaining activity of `CNc1ncc2c(/C=C/C(=O)N3CCC(OC)CC3)nn(Cc3cccc(C(F)(F)F)c3)c2n1` is reported as 93% (MARK1 (Homo sapiens, UniProt Q9P0L2); kinase activity, inhibitor; 1 µM; relative to: untreated control).

For quick reference, copied from above:
The remaining activity of `O=C1NC(=O)/C(=C/c2ccc(-c3ccc(F)cc3O)o2)S1` is reported as 62% (MKNK2; enzyme activity; 10 µM).
